Results collected from several papers.
A part holds a random share of what one study measured. Positions count from the first letter of the parent shown.

Study 1 — target: CREB3L4, bZIP domain (human); technique: DHFR protein complementation; sample: yeast; baseline: wild-type JUN-FOS pair; reading: higher = stronger binding
Setting: single substitutions, most at no-binding floor
Starting sequence: JUN, bZIP domain (human); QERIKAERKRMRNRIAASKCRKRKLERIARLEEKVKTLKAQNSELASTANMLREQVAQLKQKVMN; partner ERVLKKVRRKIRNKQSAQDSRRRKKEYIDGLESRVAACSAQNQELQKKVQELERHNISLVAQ
`Q41F` gave a binding fitness of -1.47 natural log.
For `S43K`, the binding fitness was -1.41 natural log.
`K34W` gave a binding fitness of -1.56 natural log.
`K34A` gave a binding fitness of -1.35 natural log.
With `L31C` the binding fitness was -1.36 natural log.
For `R53A`, the binding fitness was -1.49 natural log.
With `K39P` the binding fitness was -1.48 natural log.
With `L38Y` the binding fitness was -1.58 natural log.
For `E33M`, the binding fitness was -1.55 natural log.
`A40Y` gave a binding fitness of -1.35 natural log.
`E54K` gave a binding fitness of -1.23 natural log.
`A29I` has a binding fitness of -1.61 natural log.
The binding fitness of `L38E` is reported as -1.5 natural log.
With `L45D` the binding fitness was -1.42 natural log.
The binding fitness of `A57N` is reported as -1.25 natural log.
`I28V` gave a binding fitness of -1.51 natural log.
With `S43E` the binding fitness was -1.51 natural log.

Study 2 — technique: protein-binding microarray; molecule type: double-stranded DNA, one strand shown; sample: in vitro; concentration: 0.8 µM; setting: whole 60-bp probe, no competitor; reading: higher = stronger binding
Target: Centromere-binding protein 1, full length, N-terminal tag (CBF1, Saccharomyces cerevisiae, UniProt P17106, residues 1-351)
Sequence of UniProt P17106 (whole entry, looked up): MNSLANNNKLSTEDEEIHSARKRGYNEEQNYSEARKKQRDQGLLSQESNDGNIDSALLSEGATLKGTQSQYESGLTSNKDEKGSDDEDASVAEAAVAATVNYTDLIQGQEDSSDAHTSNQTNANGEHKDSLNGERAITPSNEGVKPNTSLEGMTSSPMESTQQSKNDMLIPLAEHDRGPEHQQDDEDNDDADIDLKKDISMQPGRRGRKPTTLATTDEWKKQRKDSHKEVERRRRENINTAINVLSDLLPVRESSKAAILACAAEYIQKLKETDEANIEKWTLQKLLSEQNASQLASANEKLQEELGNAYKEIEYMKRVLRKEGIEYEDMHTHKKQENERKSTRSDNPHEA
`CTAGAAATATTTCAGCATGTGATGTGGCTGAAATTCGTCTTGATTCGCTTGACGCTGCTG` has a fluorescence intensity of 2840 a.u.
With `CTATTGACTTTGTGCACCACCTTCAAATTTACTTTCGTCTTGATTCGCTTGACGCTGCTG` the fluorescence intensity was 525 a.u.
`CTATAAAGGAACCATGTGATCTTACGTTGATATTTCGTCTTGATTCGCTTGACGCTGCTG` gave a fluorescence intensity of 3460 a.u.
For `GAAATCTGAAATTTTGACGTGACATGAGAGGACTAGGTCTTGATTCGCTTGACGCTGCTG`, the fluorescence intensity was 578 a.u.
`GAATCCAACTATGGTGACGTAAGAATTTACTTGTAGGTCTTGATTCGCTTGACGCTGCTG` has a fluorescence intensity of 544 a.u.
With `GAAATACTACATGACGACGTCATATATACGTATTAGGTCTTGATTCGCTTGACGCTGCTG` the fluorescence intensity was 512 a.u.
For `CTAATTGTACGTATTCACGTGTGAATTGCTAAATTCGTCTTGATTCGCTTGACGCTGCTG`, the fluorescence intensity was 1940 a.u.
With `GAATTCGCCTGCAATCACCTGAACATGTTGGTCTAGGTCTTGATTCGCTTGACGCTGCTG` the fluorescence intensity was 764 a.u.
With `GAAGGGTGTAATGATCACGACAGTAAAGTGAGCTAGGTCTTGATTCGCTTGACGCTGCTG` the fluorescence intensity was 996 a.u.
The fluorescence intensity of `GAAAGCCCATACAACCTGATGACGAGAACGTGCTAGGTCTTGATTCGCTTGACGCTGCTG` is reported as 638 a.u.
For `CTATGCAACGATTATCACGACACAACCTTGCCGTTCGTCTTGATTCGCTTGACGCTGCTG`, the fluorescence intensity was 599 a.u.
`TGTACGAAGCTATTTCTCACCACTATAGTAGTTAGGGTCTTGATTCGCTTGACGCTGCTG` has a fluorescence intensity of 494 a.u.
The fluorescence intensity of `CTATATACTGAAACGCACGTCGCTGATGATTTCTTCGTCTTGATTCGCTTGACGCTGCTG` is reported as 511 a.u.
`GAACAACAGGCACGTGGTGGGTGTGCCTGGAGATAGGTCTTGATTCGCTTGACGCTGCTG` has a fluorescence intensity of 8930 a.u.
The fluorescence intensity of `CTATGCTCCACATAATACGTGGGTCAGACATAATTCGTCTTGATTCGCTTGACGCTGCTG` is reported as 521 a.u.
`CTACGTTTACAATATCATCATCAGTATGTGACTTTCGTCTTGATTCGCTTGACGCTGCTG` has a fluorescence intensity of 553 a.u.
For `CTATATACCACTTCACGTGCCACCGAGTAGGTTTTCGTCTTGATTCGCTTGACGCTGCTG`, the fluorescence intensity was 3900 a.u.
`CTATCTTCAACAGGAAACGTGACGGTACTCATATTCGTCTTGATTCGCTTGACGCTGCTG` gave a fluorescence intensity of 1530 a.u.
`GAAGTTTAGGTGAATCACGTGTGCCTGACCACCTAGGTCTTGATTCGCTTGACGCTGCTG` has a fluorescence intensity of 9230 a.u.
`TGTACGAAGCTATAACACGTTTTTATAGTAGTTAGGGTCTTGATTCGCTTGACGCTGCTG` has a fluorescence intensity of 698 a.u.
`CTAGAAAGTGAAGAGCACGTCCGGAAACACAGCTTCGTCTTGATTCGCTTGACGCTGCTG` has a fluorescence intensity of 511 a.u.
With `GAAGGGCAAAGACGATCCGTCACGAGCGATCATTAGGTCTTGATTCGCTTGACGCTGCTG` the fluorescence intensity was 1020 a.u.
`GAAAATGTGCTGCGGGCTGATGTCCTCCACACGTAGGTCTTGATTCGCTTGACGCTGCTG` gave a fluorescence intensity of 476 a.u.
The fluorescence intensity of `GAAACATCCTGTTGTCATGCGACTAAAGGTATTTAGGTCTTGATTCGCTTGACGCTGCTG` is reported as 618 a.u.
`CTAAATGTAAGTGATTGCGTGAAAGCTTAAAGTTTCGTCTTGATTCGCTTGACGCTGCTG` has a fluorescence intensity of 523 a.u.

Study 3 — technique: DHFR PCA, deep sequencing; sample: yeast; added: (+)-ABA 0.11 µM; baseline: wild-type fitted maximum; reading: higher = stronger binding
Target: ABI1, truncated, D143A, DHFR fusion (Arabidopsis thaliana)
Setting: methotrexate growth selection, single substitutions
Starting sequence: PYL1, truncated, DHFR fusion (Arabidopsis thaliana); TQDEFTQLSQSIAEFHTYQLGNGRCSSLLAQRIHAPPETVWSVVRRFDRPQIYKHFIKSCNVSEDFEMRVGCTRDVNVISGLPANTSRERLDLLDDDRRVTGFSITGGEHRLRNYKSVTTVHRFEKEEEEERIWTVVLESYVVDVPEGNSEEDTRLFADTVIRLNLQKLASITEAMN
`T6I` — result for “relative binding score”: 37.2%.
`L28F`: “relative binding score” 2.83%.
`S26Y`: “relative binding score” 7.44%.
`T101A` — result for “relative binding score”: 7.24%.
`D92C`: “relative binding score” 7.54%.
For `E89S`, “relative binding score” read 1.47%.
Under “relative binding score”, `F66R` is recorded as 0.47%.
`D159N` — result for “relative binding score”: 22.5%.
`T86W`: “relative binding score” 75.1%.
`S27Y` — result for “relative binding score”: 9.92%.
For `R69H`, “relative binding score” read 33.5%.
`E147M`: “relative binding score” 12.2%.
Under “relative binding score”, `A158H` is recorded as 38.3%.
Under “relative binding score”, `R111M` is recorded as 18.7%.
For `V43S`, “relative binding score” read -1.86%.
`V145A` — result for “relative binding score”: 2.12%.
`T6N` — result for “relative binding score”: 36.3%.

Study 4 — target: CCNB3, cyclin fold, Cln2 fusion (human); technique: yeast growth competition, sequencing; sample: yeast; setting: weak parent motif; baseline: not given; reading: higher = stronger binding
Starting sequence: DOT1L docking peptide (human); SEAKRRIVFTITT
Under “normalised enrichment score”, `SEAKRAIVFTITT [R6A]` is recorded as 0.0841.
`SEAKRRIVFTITA [T13A]` — result for “normalised enrichment score”: 0.259.
`SEAARRIVFTITT [K4A]` — result for “normalised enrichment score”: 0.233.
`SEAKRRIVFTATT [I11A]` — result for “normalised enrichment score”: 0.249.
Under “normalised enrichment score”, `SEAKRRIVATITT [F9A]` is recorded as 0.314.
`AEAKRRIVFTITT [S1A]` — result for “normalised enrichment score”: 0.393.

Study 5 — technique: RNA Bind-n-Seq; molecule type: RNA; sample: in vitro; concentration: 200 nM; setting: whole 134-nt RNA, ends assumed; added: 150 mM LiCl; baseline: input library; reading: higher = stronger binding; library: 7-deaza-guanosine replaces G
Target: Ras GTPase-activating protein-binding protein 1, full length (G3BP1, Homo sapiens, UniProt Q13283)
Sequence of UniProt Q13283 (whole entry, looked up): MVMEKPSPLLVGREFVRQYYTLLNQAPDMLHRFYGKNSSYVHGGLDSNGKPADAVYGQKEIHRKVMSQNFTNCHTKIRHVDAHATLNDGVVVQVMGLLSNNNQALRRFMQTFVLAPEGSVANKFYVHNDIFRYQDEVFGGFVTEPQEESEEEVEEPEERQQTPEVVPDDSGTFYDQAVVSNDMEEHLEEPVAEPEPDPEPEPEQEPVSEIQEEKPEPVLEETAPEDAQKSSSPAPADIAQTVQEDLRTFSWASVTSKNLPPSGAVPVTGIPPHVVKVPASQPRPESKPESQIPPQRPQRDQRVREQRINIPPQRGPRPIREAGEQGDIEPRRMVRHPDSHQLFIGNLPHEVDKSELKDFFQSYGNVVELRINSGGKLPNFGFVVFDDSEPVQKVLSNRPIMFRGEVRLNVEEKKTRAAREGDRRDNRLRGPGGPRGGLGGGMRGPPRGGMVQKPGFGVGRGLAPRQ
`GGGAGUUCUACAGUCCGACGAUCAGUCCUGUGCUACACAUCGUAUGUACCGAAUCGGGUUUUUGGGGUUUUUGGUUUUUGGAAAGUAUUAUGUUACGCCGUUCGGAUCUGCACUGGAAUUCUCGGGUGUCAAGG` has a log2 enrichment of -0.37.
With `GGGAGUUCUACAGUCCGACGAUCCCUGUGCUACACAUCGUAUGUACCGAAUCGGGGAAAAAAAGGGGAAAAAAAGGGGAGGGGAAAGUAUUAUGUUACGCCGUUCGGAUCUGCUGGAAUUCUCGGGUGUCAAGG` the log2 enrichment was 0.924.
For `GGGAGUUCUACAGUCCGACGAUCCUGUGCUACACAUCGUAUGUACCGAAUCAAAUUUUUUUAAACCCCCCCAAAUUUUUUUAAAAAAGUAUUAUGUUACGCCGUUCGGAUCUGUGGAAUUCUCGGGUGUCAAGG`, the log2 enrichment was 0.71.
`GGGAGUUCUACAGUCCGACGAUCCCUGUGCUACACAUCGUAUGUACCGAAUCGGGGCCCCCCGGCCCCCCGGGGCCCCCCGGGGAAAGUAUUAUGUUACGCCGUUCGGAUCUGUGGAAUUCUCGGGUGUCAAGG` has a log2 enrichment of 0.102.
The log2 enrichment of `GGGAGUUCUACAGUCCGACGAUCCACAGACAACACGAACCCACACAGACACAGAGGGAAGGGGUUGGGAUGGGGACAGGGUGCACAGCAGGGCGGGGUAGGACCCCAGCCCCUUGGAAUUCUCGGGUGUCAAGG` is reported as 0.391.
`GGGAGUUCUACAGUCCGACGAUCGCAGGAAGUAAAAACAAAUGGAAAUGCUUCGGAUAGUGGCAGGGGUGGGGGUUGCUAAGAAAAGGGUGGGAUGGGAGUGGGUAAAGAGUUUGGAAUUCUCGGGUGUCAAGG` gave a log2 enrichment of 0.285.
`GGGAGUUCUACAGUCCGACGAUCUGGGAGGUGGAUUUUGUUUAUUUUUUUAGCUCAUUUCCAGGGGUGGGAACUUUUUUUUAAUAUGUGUCAUGAAUAAAGUUGUUUUUGAAAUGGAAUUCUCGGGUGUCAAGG` gave a log2 enrichment of -0.612.
`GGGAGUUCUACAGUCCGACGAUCGUCCUGUGCUACACAUCGUAUGUACCGAAUCGGCCCCCGGGGCCCCCGGGGCCCCCGGGAAAGUAUUAUGUUACGCCGUUCGGAUCUGCAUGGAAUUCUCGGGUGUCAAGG` gave a log2 enrichment of -0.746.
`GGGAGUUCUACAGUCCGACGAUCAAGUCCUGUGCUACACAUCGUAUGUACCGAAUCGGUUUUUUUGGUUUUUGGUUUGGAAAGUAUUAUGUUACGCCGUUCGGAUCUGCACUUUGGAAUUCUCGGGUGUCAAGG` gave a log2 enrichment of -1.74.
The log2 enrichment of `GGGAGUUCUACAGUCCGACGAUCCAAGUCCUGUGCUACACAUCGUAUGUACCGAAUCGGUUUUUGGUUUUUGGAAAGGAAAGUAUUAUGUUACGCCGUUCGGAUCUGCACUUCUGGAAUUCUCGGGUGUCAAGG` is reported as -0.437.
For `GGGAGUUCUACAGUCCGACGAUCGUCCUGUGCUACACAUCGUAUGUACCGAAUCGGGGAAAAAGGAAAAAGGAAAAAGGGGAAAGUAUUAUGUUACGCCGUUCGGAUCUGCACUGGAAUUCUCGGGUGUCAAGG`, the log2 enrichment was -0.049.

Excerpt of the above (study 5):
`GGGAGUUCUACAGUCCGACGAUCGUCCUGUGCUACACAUCGUAUGUACCGAAUCGGCCCCCGGGGCCCCCGGGGCCCCCGGGAAAGUAUUAUGUUACGCCGUUCGGAUCUGCAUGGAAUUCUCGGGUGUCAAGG` gave a log2 enrichment of -0.746.
`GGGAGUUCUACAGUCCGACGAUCUGGGAGGUGGAUUUUGUUUAUUUUUUUAGCUCAUUUCCAGGGGUGGGAACUUUUUUUUAAUAUGUGUCAUGAAUAAAGUUGUUUUUGAAAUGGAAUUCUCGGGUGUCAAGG` gave a log2 enrichment of -0.612.
For `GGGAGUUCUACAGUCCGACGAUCGUCCUGUGCUACACAUCGUAUGUACCGAAUCGGGGAAAAAGGAAAAAGGAAAAAGGGGAAAGUAUUAUGUUACGCCGUUCGGAUCUGCACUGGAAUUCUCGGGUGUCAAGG`, the log2 enrichment was -0.049.
For `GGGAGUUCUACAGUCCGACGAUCCUGUGCUACACAUCGUAUGUACCGAAUCAAAUUUUUUUAAACCCCCCCAAAUUUUUUUAAAAAAGUAUUAUGUUACGCCGUUCGGAUCUGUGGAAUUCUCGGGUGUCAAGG`, the log2 enrichment was 0.71.
`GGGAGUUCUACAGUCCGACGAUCAGUCCUGUGCUACACAUCGUAUGUACCGAAUCGGGUUUUUGGGGUUUUUGGUUUUUGGAAAGUAUUAUGUUACGCCGUUCGGAUCUGCACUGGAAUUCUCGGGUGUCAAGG` has a log2 enrichment of -0.37.
